# Assay results pooled from the literature.
# Numbered parts are unrelated; each lists some results of a single study. Substitutions count along the parent as printed.

# Sample 1
# Target: RING finger protein unkempt homolog, zinc fingers 1-6, GST-SBP tag (UNK, Homo sapiens, UniProt Q9C0B0, residues 30-357)
# Method: RNA Bind-n-Seq
# Molecule type: RNA
# Medium: in vitro
# Tested at: not given
# Setting: RNA with constant flanks, human and mouse sites, ends assumed
# Baseline: input RNA pool
# Direction: higher = stronger binding
# Construct (chain): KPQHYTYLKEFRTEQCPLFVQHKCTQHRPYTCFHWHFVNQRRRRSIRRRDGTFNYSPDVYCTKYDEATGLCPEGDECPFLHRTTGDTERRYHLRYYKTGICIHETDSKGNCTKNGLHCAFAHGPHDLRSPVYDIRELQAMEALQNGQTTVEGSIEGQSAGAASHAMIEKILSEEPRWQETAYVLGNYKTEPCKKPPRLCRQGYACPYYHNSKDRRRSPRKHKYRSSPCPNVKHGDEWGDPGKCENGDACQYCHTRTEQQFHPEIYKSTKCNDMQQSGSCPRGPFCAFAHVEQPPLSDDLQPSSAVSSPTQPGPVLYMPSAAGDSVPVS
Oligonucleotide,bound/input enrichment
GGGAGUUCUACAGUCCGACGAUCAAUCUGGGUUUUGUCAAAAUAGUACUAUAGAAUAAAUGGGAGAAAGAAGAAAGCAAGCUAAAUGGGAAACCGUGAAUGAAUGGAGGACGAAAGAAGAAAAAGGCAAAGUAAAGAGAGAAGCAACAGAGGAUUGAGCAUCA,5.56 ratio
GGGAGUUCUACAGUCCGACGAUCCGCAGAGCUAAAAGGAGAAAUAUGGAGAGGCUGACUCUUGCUUGUGGUGGGGUAGCCCUGAAUUCUUUUGACGACCUAAGUCCUGACUGCUUGGGACAUGCAGGACUUGUAUAUGAGUAUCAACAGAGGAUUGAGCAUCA,0.47 ratio
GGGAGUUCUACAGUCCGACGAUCGAGGAAGUUCACGAUCUUGAAAGGAAGUAUGCUGUUCUCUAUCAGCCUCUAUUUGAUAAGCGAUUUGAAAUUAUUAAUGCAAUUUAUGAACCUACGGAAGAAGAAUGUGAAUGGAAACCACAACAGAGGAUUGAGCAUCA,0.485 ratio
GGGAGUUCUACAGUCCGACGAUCUGAGAGAUCCUAAUAAUCAACUUCACGUAAUUAAAAAUUUGAAGAUAGCAGUAAGCAACAUUGUCACCCAGCCACCUCAGCCUGGAGCCAUCCGGAAGCUUUUGAAUGAUGUUGUUUCUGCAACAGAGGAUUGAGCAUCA,0.25 ratio
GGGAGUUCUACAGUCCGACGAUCAAAGAAUUACAGACGACCCUUGUCCGUGGGUAUCAGGUUCACGUGCUCACUUUCACUGUUUACACGUUGCUGCAAGGCCUCUCCAGCAAGCUGCAAGUUGGGGAUUUAGAUUCUUGUCUUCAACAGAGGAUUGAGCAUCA,0.23 ratio
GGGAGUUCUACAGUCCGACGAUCAAAUGUGCUGCCUCUGUUGGAAUUGGUUCUAAUAUUCUCCUGGCUAGAAUGGCAACUAGAAAAGCAAAACCAGAUGGGCAGUACCACCUAAAACCAGAAGAAGUAGAUGAUUUUAUCAGACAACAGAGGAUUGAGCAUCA,0.327 ratio
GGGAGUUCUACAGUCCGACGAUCUUGUCUCCUGCAUUCCAUCAAGCACUACUCUCUUUUUGUCGAAUGUCAGCAGAUAGUCGUUUAGGAUACGAGGUGUCUCGUAUUGCAGACAGUGAAAAAAGCGUUAUGUUAAUGCUGGGACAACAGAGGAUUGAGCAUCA,0.264 ratio
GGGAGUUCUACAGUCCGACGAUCAAGGAUUCAACACAUCCAGUGGAUUUUCUGGAUGCAUUCAGAACAUUUUACUUGGAUGGAUUAUUUACUGAUAUUACUCUUCAGUGUCCUUCAGGCAUAAUUUUCCAUUGUCACCGAGCCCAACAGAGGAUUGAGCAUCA,0.17 ratio
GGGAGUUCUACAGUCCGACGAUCAUUCAGAACAGCAACAAAAAAAUAUUGCAGUGUCCUAAAUGUGAUAAAACAUUUGACCGAAUAGGAAAAUAUGAGAGCCACACCCGUGUUCACACAGGUGAGAAGCCCUUUGAGUGUGAUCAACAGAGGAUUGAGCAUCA,0.55 ratio
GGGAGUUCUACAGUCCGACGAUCAGCAAAGAUGCCAAGGUUCCUUCUCCUCCUCCAGGACAUAAGUGGAAAGAAGUCCGGCAUGAUAACAAGGUUACUUGGCUGGUUUCCUGGACAGAGAACAUCCAAGGUUCCAUUAAAUACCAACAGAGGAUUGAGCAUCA,0.0629 ratio
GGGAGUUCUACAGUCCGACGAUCAAUUCUCUGAAAAUCCCAUUAGGAAACCAGGUGUGAAAAGGGCUCAGUAGCUUCUCUGAGUGGCGUUUUUAGCUGACUGGAAGUGCUUAAUCUGGAUCGUCUUUUUUUUUUUUUUUUUUUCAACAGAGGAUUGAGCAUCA,3.19 ratio

# Sample 2
# Target: Interferon regulatory factor 3, full length, phosphomimetic (IRF3, Homo sapiens, UniProt Q14653, residues 1-427, S386D/S396D/S398D/S402D/T404D/S405D)
# Sequence of UniProt Q14653 (whole entry, unmodified, looked up): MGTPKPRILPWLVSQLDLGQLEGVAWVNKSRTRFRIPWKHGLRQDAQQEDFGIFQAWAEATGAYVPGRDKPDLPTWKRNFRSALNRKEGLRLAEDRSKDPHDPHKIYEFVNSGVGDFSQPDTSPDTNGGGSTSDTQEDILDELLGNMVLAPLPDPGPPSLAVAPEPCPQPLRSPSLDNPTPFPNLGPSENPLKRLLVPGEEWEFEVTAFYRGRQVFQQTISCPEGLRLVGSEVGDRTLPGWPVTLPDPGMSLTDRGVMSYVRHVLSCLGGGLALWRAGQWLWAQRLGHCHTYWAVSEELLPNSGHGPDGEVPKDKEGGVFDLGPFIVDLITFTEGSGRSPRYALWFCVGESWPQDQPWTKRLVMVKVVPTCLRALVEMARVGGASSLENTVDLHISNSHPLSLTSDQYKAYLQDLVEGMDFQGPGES
# Method: protein-binding microarray
# Molecule type: double-stranded DNA, one strand shown
# Medium: in vitro
# Tested at: 2540 nM top
# Setting: 60-bp whole probe
# Added: salmon DNA 0.4 mg/ml
# Baseline: random background probes
# Direction: higher = stronger binding
# Constant ends, left off below: GCCTAGCAC … GTCTTGATTCGCTTGACGCTGCTG
Oligonucleotide,fitted relative affinity [z-score]
CAGGGGCTGCCTGGATGCCGGTGCTAG,-1.34
ATCCCATTAAATTTTAATAAGTGCTAG,0.925
TTAGGTTTCGACTTTCGTTTAGTGCTA,3.77
GTCGATTCCAGTTTCGAGACGTGCTAG,3.77
TTGGTGCTCATTTTTTTTGCGTGCTAG,-0.115
ATGAAATGCCACACACACACGTGCTAG,-0.226
ATTTTTTTGCATTGCTTCTAGTGCTAG,0.599
TTGGATATCGGGACTGGATTAGTGCTA,-0.259
TTAGGTATCGACTTTCGGTTGGTGCTA,1.35
TCACATTTACATTTTAGACTGTGCTAG,1.8
GGAAGCAGTGAGAAGGTGGCGTGCTAG,-0.883
GACGAACTGGGGCTTCGAGACGTGCTA,-0.841
TCAGTTCTGGGAAATATTACTGTGCTA,0.57
TTAGGTTTCGGGTTTCGGTTCGTGCTA,6.68
GACGGTTTCGACTATCGTGACGTGCTA,2.81
GATGGTATCGACACTGGGGACGTGCTA,0.185
TTAGGTATCGGACTGGGTTTGTGCTAG,1.06
GTAGAAAATTCATGTTATAAGTGCTAG,-0.0552
GACGATTTCAGTTGCGAGACGTGCTAG,1.48
GACGGTTTCGGTTCAGGGACGTGCTAG,9.42
GAAGGACTGGGACTGGGGACGTGCTAG,-1.02
GACCGTATCCTACTGCTGACGTGCTAG,2.71
TTAGGTACCGGTATCGGTTAGTGCTAG,3.11
GACGCACTGCTTTTCCTGACGTGCTAG,-0.148
TCATAAACCATTTTGGTACTGTGCTAG,0.828

# Sample 3
# Target: ABI1, truncated, D143A, DHFR fusion (Arabidopsis thaliana)
# Method: DHFR PCA, deep sequencing
# Medium: yeast
# Setting: methotrexate growth selection, single substitutions
# Added: (+)-ABA 17 µM
# Baseline: wild-type fitted maximum
# Direction: higher = stronger binding
# Parent: PYL1, truncated, DHFR fusion (Arabidopsis thaliana); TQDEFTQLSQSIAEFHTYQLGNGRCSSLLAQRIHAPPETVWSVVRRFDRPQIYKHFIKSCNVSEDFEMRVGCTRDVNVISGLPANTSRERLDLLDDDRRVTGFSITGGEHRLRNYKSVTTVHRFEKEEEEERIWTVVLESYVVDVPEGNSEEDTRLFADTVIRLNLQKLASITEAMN
Substitution,relative binding score [%]
K54M,-11.6
T120Y,-3.75
H34R,74.9
P146E,0.912
H110K,1.02
S42M,65
E14L,58.6
T39Q,77.1
E14I,49.2
D3S,79
A84I,4.25
C72Q,82.3
P36G,47.6
W134L,93.3
R132C,97
L82P,33.2

# Sample 4
# Target: Prothrombin, mature alpha-thrombin (F2, Homo sapiens, UniProt P00734)
# Method: aptamer microarray, sandwich
# Molecule type: DNA with 2'F-ANA
# Medium: in vitro
# Tested at: 200 nM
# Setting: whole 15-mer aptamer, many near background
# Added: Cy3 exosite-II aptamer, 400 nM
# Direction: higher = stronger binding
# Oligonucleotide: GGTTGGTGTGGTTGG
Modification,mean fluorescence intensity
2'F-ANA at 1 4 6 7 8 9 10 11,81.5 a.u.
2'F-ANA at 1 4 7 8 10 11 13 15,49.5 a.u.
2'F-ANA at 2 3 4 5 8 9 13,66 a.u.
2'F-ANA at 4 7 8 12 13 14 15,147 a.u.
2'F-ANA at 2 3 4 9 12,1000 a.u.
2'F-ANA at 3 5 7 8 10 14,53.1 a.u.
2'F-ANA at 2 4 6 8 10 11 13 15,165 a.u.
2'F-ANA at 3 4 8 14,462 a.u.
2'F-ANA at 1 6 9 10 13,63.4 a.u.
2'F-ANA at 1 3 5 6 7 8 9 10 14 15,50.9 a.u.
2'F-ANA at 1 2 4 7 11 15,102 a.u.
2'F-ANA at 3 5 7 11 12 14 15,60.7 a.u.
2'F-ANA at 1 2 3 7 10,66.6 a.u.
2'F-ANA at 1 2 3 4 7 9 10 11 12 15,89 a.u.
2'F-ANA at 1 2 3 7 8 9 10 14,56.9 a.u.
2'F-ANA at 2 5 7 8 9 14 15,131 a.u.
2'F-ANA at 1 2 4 5 6 7 12,123 a.u.
2'F-ANA at 4 5 7 13,66.3 a.u.
2'F-ANA at 2 5 6 8 9 11 12 13 14,49.4 a.u.
2'F-ANA at 3 4 6 8 12 13,685 a.u.

# Some of these lines once more (sample 2):
Oligonucleotide,fitted relative affinity [z-score]
GAAGGACTGGGACTGGGGACGTGCTAG,-1.02
GACCGTATCCTACTGCTGACGTGCTAG,2.71
TTAGGTACCGGTATCGGTTAGTGCTAG,3.11
GACGCACTGCTTTTCCTGACGTGCTAG,-0.148
